Results of several laboratories.
Lines come from different studies, so protocols differ. ± gives the spread as reported.

Compound	assay	system	conditions	tissue uptake [%ID/g]
CC[C@H](C)[C@H](NC(=O)[C@H](CCCNC(=N)N)NC(=O)[C@H](CCCCN)NC(=O)[C@H](Cc1ccc(O)cc1)NC(=O)[C@H](CC(=O)O)NC(=O)[C@H](C)NC(=O)CNC(=O)CCOCCOCCOCCNC(=O)CN1CCN(CC(=O)O)CCN(CC(=O)O)CCN(CC(=O)O)CC1)C(=O)N[C@H](C(=O)N[C@H](C(=O)N[C@@H](CCCCN)C(=O)N[C@H](C(=O)N[C@@H](CC(N)=O)C(N)=O)C(C)C)C(C)C)[C@@H](C)O [copper-64 labelled]	ex vivo gamma counting	male C57BL/6J mouse, B16-F10 tumour, B16-F10 tumour	intravenous, 1.85 MBq, 40 min	1.79 ± 0.031
CN1Cc2cc(Cl)ccc2-n2c(nnc2C2CCN(c3cccc([18F])n3)CC2)C1		C57BL/6 mouse male, spleen	intravenous, 3.7 MBq, 5 min	4.82 ± 0.4
O=C([O-])CN1CCCN2CCN(CCCN(CC(=O)NC(Cc3ccccc3)C(=O)NC(Cc3ccccc3)C(=O)NCCCC[C@H](NC(=O)CCCCCCC(=O)NCCCC[C@H](NC(=O)N[C@@H](CCC(=O)O)C(=O)O)C(=O)O)C(=O)O)CC2)CC1.[64Cu+2] (single isomer, unassigned)		mouse PC-3 PIP tumour, PSMA+ tumour	2 h	20.5 ± 2.9
CC[C@H](C)[C@H](NC(=O)[C@H](CCCCN)NC(=O)CNC(=O)[C@H](CC(C)C)NC(=O)[C@H](Cc1ccccc1)NC(=O)[C@H](CCCCN)NC(=O)[C@H](CO)NC(=O)[C@H](Cc1ccccc1)NC(=O)[C@H](Cc1c[nH]c2ccccc12)NC(=O)[C@H](CCC(N)=O)NC(=O)[C@@H](NC(=O)[C@H](Cc1ccccc1)NC(=O)CCCCCNC(=O)CN1CCN(CC(=O)O)CCN(CC(=O)O)CCN(CC(=O)O)CC1)C(C)C)C(=O)N[C@@H](CCC(=O)O)C(=O)N1CCC[C@H]1C(=O)N[C@@H](CC(=O)O)C(=O)N[C@H](C(=O)N[C@@H](CO)C(=O)N[C@@H](CCC(N)=O)C(=O)N[C@H](C(=O)N[C@@H](CCC(N)=O)C(=O)N[C@@H](CC(=O)O)C(=O)N1CCC[C@H]1C(=O)N[C@@H](CC(N)=O)C(=O)N[C@@H](CC(=O)O)C(=O)N[C@@H](CCC(N)=O)C(=O)N[C@@H](Cc1ccc(O)cc1)C(=O)N[C@@H](CCC(=O)O)C(=O)N1CCC[C@H]1C(=O)N[C@@H](Cc1ccccc1)C(=O)O)C(C)C)C(C)C [copper-64 labelled]		GZMB-/- mouse bearing CT26 tumour, tumor	dose not given, 2 h, vehicle-treated	1.66 ± 0.3
CC[C@H](C)[C@H](NC(=O)[C@@H](Cc1c[nH]c2ccccc12)NC(=O)[C@@H]1CCCN1C(=O)[C@H](CCCCN)NC(=O)[C@H](CCCCN)NC(=O)CCNC(=O)CCNC(=O)CN1CCN(CC(=O)O)CCN(CC(=O)O)CCN(CC(=O)O)CC1)C(=O)N[C@@H](C[Si](C)(C)C)C(=O)O [gallium-68 labelled]		nude mouse HT-29 xenograft, liver	90 min	0.22 ± 0.17
CC[C@H](C)[C@H](NC(=O)[C@H](CCCNC(=N)N)NC(=O)[C@H](CCCCN)NC(=O)[C@H](Cc1ccc(O)cc1)NC(=O)[C@H](CC(=O)O)NC(=O)[C@H](C)NC(=O)CNC(=O)CCOCCOCCOCCNC(=O)CN1CCN(CC(=O)O)CCN(CC(=O)O)CCN(CC(=O)O)CC1)C(=O)N[C@H](C(=O)N[C@@H](CC(C)C)C(=O)N[C@@H](CCCCN)C(=O)N[C@H](C(=O)N[C@@H](CC(N)=O)C(N)=O)C(C)C)[C@@H](C)O [copper-64 labelled]		C57BL/6J mouse male, B16-F10 tumour, small intestine	intravenous, 1.85 MBq, 5 min, 67Ga complex	1.46 ± 0.155
C[C@H](O)[C@@H](NC(=O)[C@H]1CCCN1C(=O)[C@@H](CCCCN)NC(=O)[C@@H](CO)NC(=O)[C@@H](Cc1ccc(O)cc1)NC(=O)[C@@H](CC(N)=O)NC(=O)CCOCCOCCOCCNC(=O)CN1CCN(CC(=O)O)CCN(CC(=O)O)CCN(CC(=O)O)CC1)C(=O)N[C@H](CC(=O)O)C(=O)N[C@H](CCCNC(=N)N)C(=O)N[C@H](CCC(N)=O)C(=O)N[C@H](Cc1ccc(O)cc1)C(=O)N[C@H](Cc1c[nH]cn1)C(=O)N[C@H](Cc1ccccc1)C(N)=O [copper-64 labelled]	ex vivo gamma counting	C57BL/6J mouse, normal, small intestine	intravenous, 1.85 MBq, 40 min	1.32 ± 0.23
CSCC[C@H](NC(=O)CNC(=O)[C@H](CCCCN)NC(=O)[C@H](CC(C)C)NC(=O)[C@@H]1CCCN1C(=O)[C@H](CO)NC(=O)[C@H](Cc1c[nH]cn1)NC(=O)[C@H](Cc1c[nH]c2ccccc12)NC(=O)[C@H](CCCNC(=N)N)NC(=O)[C@H](CC(C)C)NC(=O)[C@H](CCCNC(=N)N)NC(=O)[C@H](Cc1c[nH]c2ccccc12)NC(=O)[C@H](CS)NC(=O)CCCCCNC(=O)CN1CCN(CC(=O)O)CCN(CC(=O)O)CCN(CC(=O)O)CC1)C(=O)O [copper-64 labelled]		mouse, male, B16-F10 tumour, tumour	intravenous, 1.85 MBq, 0.5 h	4.67

Excerpt of the above:
Compound	assay	system	conditions	tissue uptake [%ID/g]
CN1Cc2cc(Cl)ccc2-n2c(nnc2C2CCN(c3cccc([18F])n3)CC2)C1		C57BL/6 mouse male, spleen	intravenous, 3.7 MBq, 5 min	4.82 ± 0.4
